Results of several laboratories.
Compare with care: the assays were run in different laboratories.

CC[C@H](C)[C@H](NC(=O)[C@H](CO)NC(=O)[C@H](CO)NC(=O)[C@H](Cc1ccccc1)NC(=O)CN)C(=O)N[C@@H](Cc1ccccc1)C(=O)N[C@@H](CCCNC(=N)N)C(N)=O  MIC (Escherichia coli; ATCC 8739; together with: 4 µM FeCl3): > 128 µM
[O-][N+]1=C(c2ccccc2)C2=NCCCN2c2ncccc21  MIC (Fusobacterium mortiferum; microbial growth): 0.125 µg/mL
CC1C(=NOCc2cn(-c3ccccc3)nn2)C(C)C(c2ccc(Br)cc2)OC1c1ccc(Br)cc1 (stereo not shown)  MIC (Aspergillus flavus; microbial growth): 6.3 µg/mL
C=CCCC[C@@H]1NC(=O)[C@H](CC(C)C)NC(=O)[C@H](C)NC(=O)[C@H](NC(=O)[C@H](CO)NC(=O)[C@@H](CCCCN)NC(=O)[C@@H](CCCC=C)NC(=O)[C@@H](N)Cc2ccccc2)[C@H](C)OC1=O  MIC (Bacillus subtilis Bacillus subtilis; ATCC 6051; tested as TFA salt): 0.5 µg/mL
[O-][N+]1=C(c2ccccc2)C2=NCCN2c2ccccc21  MIC (Fusobacterium nucleatum; microbial growth; ATCC25586): ≤ 0.06 µg/mL
COc1ccc2ccc3c(c2c1)C=[N+]1C2CCCCC2[N+]2=Cc4cccc(F)c4[O][Au-]21[O]3.F[P-](F)(F)(F)(F)F (stereo not shown)  MIC (Klebsiella pneumoniae; bacterial growth, broth microdilution; carbapenem-resistant; 24 h): 10 µM
CC[C@H](C)[C@H](NC(=O)[C@H](Cc1c[nH]c2ccccc12)NC(=O)[C@H](CCCNC(=N)N)NC(=O)[C@H](CCC(N)=O)NC(=O)[C@@H](NC(=O)[C@H](Cc1c[nH]c2ccccc12)NC(=O)[C@H](CCCNC(=N)N)NC(=O)[C@H](CCCNC(=N)N)NC(=O)[C@H](CCSC)NC(=O)[C@H](C)NC(=O)[C@H](CCCCN)NC(=O)[C@@H]1CCCN1C(=O)[C@H](C)N)C(C)C)C(=O)N[C@@H](CCCNC(=N)N)C(=O)N[C@@H](CCCNC(=N)N)C(=O)N[C@@H](Cc1c[nH]c2ccccc12)C(=O)N[C@@H](CCCNC(=N)N)C(=O)N1CCC[C@H]1C(=O)N[C@@H](CCCCN)C(=O)N[C@H](C(=O)N[C@@H](Cc1ccccc1)C(=O)N[C@@H](CCC(N)=O)C(=O)N[C@H](C(=O)N[C@H](C(=O)NCC(=O)N[C@@H](CO)C(=O)N[C@@H](CO)C(=O)N[C@@H](C)C(N)=O)[C@@H](C)O)C(C)C)C(C)C  MIC (Malassezia furfur; cell growth; DTO 383-D9; 48 h, 30 °C): ≤ 0.3 µM
CC[C@H](C)[C@H](NC(=O)[C@@H](NC(=O)CN)C(C)C)C(=O)N[C@@H](Cc1ccccc1)C(=O)N[C@@H](CC(N)=O)C(=O)N[C@@H](C)C(=O)N[C@@H](CC(C)C)C(=O)N[C@@H](CCCCN)C(=O)NCC(=O)N[C@H](C(=O)N[C@@H](C)C(=O)N[C@@H](CCCCN)C(=O)N[C@H](C(=O)N[C@H](C(=O)N[C@@H](C)C(=O)N[C@@H](C)C(=O)N[C@@H](CCC(N)=O)C(=O)N[C@@H](CC(C)C)C(=O)N[C@@H](CC(C)C)C(=O)N[C@@H](CCCCN)C(=O)N[C@@H](CCCCN)C(=O)N[C@@H](C)C(=O)N[C@@H](CCCNC(=N)N)C(=O)N[C@H]1CSSC[C@@H](C(=O)O)NC(=O)[C@H](CO)NC(=O)[C@H](CCCCN)NC(=O)[C@H](CC(=O)O)NC(=O)[C@H](CC(C)C)NC(=O)[C@H](CCCCN)NC1=O)C(C)C)[C@@H](C)O)C(C)C  MIC (Staphylococcus aureus; NCTC 10788, Mueller-Hinton broth; together with: MgCl2 1 mM): 2 µM
CC[C@H](C)[C@@H]1NC(=O)[C@H](CC(C)C)NC(=O)[C@@H](NC(=O)[C@H](CO)NC(=O)[C@H](CCCNC(=N)N)NC(=O)[C@@H](N)CO)CSSC[C@@H](C(=O)N[C@@H](CCC(N)=O)C(=O)N[C@@H](CCCNC(=N)N)C(=O)N[C@@H](CC(C)C)C(=O)N[C@@H](Cc2ccccc2)C(N)=O)NC(=O)[C@H](C(C)C)NC1=O  MIC (Listeria monocytogenes; broth microdilution; ATCC BAA-679 (EGD-e)): 100 µg/mL
[O-][N+]1=C(c2ccsc2)C2=NCCCN2c2ccccc21  MIC (Peptostreptococcus anaerobius): 1 µg/mL

Excerpt of the above:
C=CCCC[C@@H]1NC(=O)[C@H](CC(C)C)NC(=O)[C@H](C)NC(=O)[C@H](NC(=O)[C@H](CO)NC(=O)[C@@H](CCCCN)NC(=O)[C@@H](CCCC=C)NC(=O)[C@@H](N)Cc2ccccc2)[C@H](C)OC1=O  MIC (Bacillus subtilis Bacillus subtilis; ATCC 6051; tested as TFA salt): 0.5 µg/mL
